Assay results of several laboratories.
Parts stem from different laboratories: compare values within a part only.

Block 1
Target: RNA binding protein fox-1 homolog 2, RRM domain, GST-SBP tag (RBFOX2, Homo sapiens, UniProt O43251-10, residues 100-194)
Technique: RNA Bind-n-Seq
Molecule type: RNA
Matrix: in vitro
Tested at: 365 nM
Setting: natural RNA segment, single round, ends assumed
Baseline: no-protein control
Direction: higher = stronger binding
Quantity: RBNS enrichment (R)
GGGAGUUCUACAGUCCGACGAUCCACAAGAAAAGCACUUGCUGCCAACUGGAUGACUUGAGUUUGUUCCCUGGGACCCAAAUGGAAGGGGAGACUUAUCUCCUGCAAGUUGUCUUUUAACCUGCGCAUGUGUGUGGAAUUCUCGGGUGCCAA: 2.29
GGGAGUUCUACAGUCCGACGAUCUUAAAAUCAACUUUAUAACUAAUUCAUACUAUAAGACAGAUAAUAGCUAAAGUUUUGGAAUAAUUUAUAUUAAAAGCCGCAAGUCUUAAAAAUCCCUGGAUAUGACAUAAUGGAAUUCUCGGGUGCCAA: 0.433
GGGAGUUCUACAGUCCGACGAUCACCACACUCUGUAAACAGACCCAUUGAAUUAAUAAGGACUGGUGAUUCAUUUGUGUAACUCACUGAAGCCAAAAUACUAUCUUUUAAGAUGUCCCACAUGGAAGACGCUAUGGAAUUCUCGGGUGCCAA: 0.434
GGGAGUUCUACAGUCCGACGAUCAGCGUUCACAGUUAGAUUUUCACCUCGUGCCACUCUCUUUUGGGGUCUGGCUUGAGCAUCUAUGGGCAGCCACAGCGACCAGUCUAGUCCCAGACAGCACAGGUCAAGCAUGGAAUUCUCGGGUGCCAA: 0.488
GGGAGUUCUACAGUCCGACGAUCCCCCUUCUGGCCCCCUGCCUGGAGCAUCUGGCAGCCCCACACCUGCCCUUGGGGGUUGCAGGCUGCCCCCUUCCUGCCAGACCGGAGGGGCUGGGGGGAUCCCAGCAGGGUGGAAUUCUCGGGUGCCAA: 0.458
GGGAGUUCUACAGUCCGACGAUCACCCUGUUUUAUAAACCUGUGCCUGUCUAUGGAGAAGGUUUUAAUUCUCCUUGUUAUUCAUUUUGGGCUUUUUGAUGAAACCACCAGGGCAUCACAUAUACUAAGCAUGUUGGAAUUCUCGGGUGCCAA: 7.23
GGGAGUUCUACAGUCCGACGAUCCAGUACCUCUGUGGUUAAAAAUGGAAACUGUUCUCCUCCCCAGCCCCACUCCCUGUUCCCUACCCAUAUAGGCCCUAAAUUUGGGAAAAAUCACUAUUAAUUUCUGAAUCUGGAAUUCUCGGGUGCCAA: 0.572
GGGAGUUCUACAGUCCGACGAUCAUCCCUUUAUACAAAGAAAAUAAAAGUAAGGCAUAUAAAUUUCCUCCAGCAAGCAAAUCUUGUGGGUAAAAAAAAAAAUGUGAAUUUUAACAACCUCUAUAUUUUCACUGUGGAAUUCUCGGGUGCCAA: 0.589

Block 2
Target: Interferon regulatory factor 5, full length, phosphomimetic (IRF5, Homo sapiens, UniProt Q13568-2, residues 1-514, S451D/S453D/S456D/S462D)
Technique: protein-binding microarray
Molecule type: double-stranded DNA, one strand shown
Matrix: in vitro
Tested at: 940 nM top
Setting: 60-bp whole probe
With: salmon DNA 0.4 mg/ml
Baseline: random background probes
Direction: higher = stronger binding
Quantity: fitted relative affinity
All sequences stand within: GCCTAGCAC … GTCTTGATTCGCTTGACGCTGCTG
TTAGGACTGGGAATGGGTTAGTGCTAG: -0.0416 z-score
TTAGAACTGGGGACTGGCTTAGTGCTA: -0.0326 z-score
TTAGGTTTTCTTATCCTTTAGTGCTAG: 1.06 z-score
AAAAATGATTGGTTGAACATGTGCTAG: -0.579 z-score
TCACTCTTCTTTTGCTAACTGTGCTAG: 1.61 z-score
TTAGGTCGCCTTCTCCTTTAGTGCTAG: 0.194 z-score
GACGATTTCAGTTTCGAGCCGTGCTAG: 3.84 z-score
TTAAGTATCGGGACTGGGTTAGTGCTA: 3.93 z-score
GACGGTAGCGGGTATCGGGACGTGCTA: 1 z-score
GAAGGTATCCTTTTCCTGACGTGCTAG: 0.251 z-score
TTAGATCTCAGTATCGCTTAGTGCTAG: 2.01 z-score
TCAGGTTTCCTTTCCCTTTAGTGCTAG: 1.92 z-score
TCAGGCTTAGTTTGTCAAACTGTGCTA: -0.54 z-score
TTAGGACTGGTCACTGGGTTAGTGCTA: -0.658 z-score
GACGGTATCCTATTGCTGACGTGCTAG: 0.255 z-score
TTAGGTATCGACTTTCGGTTGGTGCTA: 6.25 z-score
GACGATCTCAGTACCGAGACGTGCTAG: 0.118 z-score
ATGATGTGTCAAAAATTGCAGTGCTAG: -0.812 z-score
TTGTGTTTTCATTTTATGACGTGCTAG: 1.02 z-score

Block 3
Target: RING finger protein unkempt homolog, zinc fingers 1-6, GST-SBP tag (UNK, Homo sapiens, UniProt Q9C0B0, residues 30-357)
Sequence of UniProt Q9C0B0 (30-357, looked up): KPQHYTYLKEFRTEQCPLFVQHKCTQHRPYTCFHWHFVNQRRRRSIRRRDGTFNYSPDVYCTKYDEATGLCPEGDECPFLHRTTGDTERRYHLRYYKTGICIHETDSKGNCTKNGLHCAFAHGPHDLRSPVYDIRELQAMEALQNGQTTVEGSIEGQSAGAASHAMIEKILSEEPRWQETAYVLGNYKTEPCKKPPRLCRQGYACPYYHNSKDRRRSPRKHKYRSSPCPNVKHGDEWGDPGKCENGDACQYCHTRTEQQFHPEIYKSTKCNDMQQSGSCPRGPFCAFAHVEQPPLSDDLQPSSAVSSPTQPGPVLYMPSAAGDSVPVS
Technique: RNA Bind-n-Seq
Molecule type: RNA
Matrix: in vitro
Tested at: not given
Setting: RNA with constant flanks, ends assumed
Baseline: input RNA pool
Direction: higher = stronger binding
Quantity: bound/input enrichment
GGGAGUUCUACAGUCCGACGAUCGUUAUGGGUGUGAGAGGUUUGCAAGGAUUUGUGGGAAGUACCUGCCCACAUAUAUGUACAGCCGUAAAUUUCAAAGAACUGGCAGAGCACCACCGAAGCAAGUAUCCUGGAUGUACCCCUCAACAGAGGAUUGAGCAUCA: 0.298 ratio
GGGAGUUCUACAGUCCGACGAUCGCAGAGCUUGAUACACUGAACGAAGACUCCUACAAAGACAGCACCCUCAUCAUGCAGUUGCUCCGAGACAACUUAACAUUAUGGACAUCAGACAGUGCAGGAGAAGAAUGUGAUGCAGCACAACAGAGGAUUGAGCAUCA: 0.174 ratio
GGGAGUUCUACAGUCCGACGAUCAAUCAGUUUGAGACAGAAUUAUGAAUAGAGAUCUAUCAGUAACUUUUGCAUUUCACACCACCGCCCGAGUUUGGCUCACCAAUAACUUGUAUAUAUUUUGAAUGGGAAACACAUGGGUGCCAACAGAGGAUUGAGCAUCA: 0.749 ratio
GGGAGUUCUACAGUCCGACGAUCGGAAUUCAACCUGUUAUAGAUAAAUUAAGGGAACAUGAAAAUUCAACACUAGACAGGCAUUCCGACUUUUUUGAAAUGCUCCGAAAUGAAGAUGAACUAGAAUUUGCCAAAAGAUUUGAACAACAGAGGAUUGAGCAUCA: 0.511 ratio
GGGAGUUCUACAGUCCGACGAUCGGAAAUCUAGACCUCCAAGUGUAUGCAGCAGAGUCUCCUCCAUCUUGAAACAAACAAAACAUCCGGCUCCUGUUGUAUCUUGGUUUAGUAACAGGCCCUUAAUUAACUUAUUUGUACAUGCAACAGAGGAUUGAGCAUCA: 0.622 ratio
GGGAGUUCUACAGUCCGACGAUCUGGAGGGGAAUCCUAUUAUUUGGGCCGCCUGGAACAGGAAAGUCCUACUUAGCCAAAGCUGCCGCAACAGAAGCCAACAACUCAACAUUUUUUUCAAUAUCUUCCUCUGAUCUUGUUUCUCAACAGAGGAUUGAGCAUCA: 2.16 ratio
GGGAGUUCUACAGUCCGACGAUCUAAGAAGAAAAACAAGUUAUAGCACUUUCAAUUUUUUUUUUUUUUUUAAAAAAAGGUUUACCGCUUUUUCUUUUCCCAUGUCACAAUGUCCACUUCCUAAGAAGGGUUUAAAAUACUAUGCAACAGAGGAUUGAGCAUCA: 0.679 ratio
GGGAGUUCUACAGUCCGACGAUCCCCGUGUCGAGAGUUUAUUCUAGGGACAGGAAUCAAAAAUGCGGUGCGUCUUUCUACGUGAACCGGAUUUUGUGGCUGGCCAGAUACACUGCAUCAUCUUUUUCAUCAUUUUUAGUUCAACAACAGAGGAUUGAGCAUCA: 1.95 ratio

Block 4
Target: Sal-like protein 4, full length isoform A (SALL4, Homo sapiens, UniProt Q9UJQ4, residues 1-1053)
Sequence of UniProt Q9UJQ4 (whole entry, looked up): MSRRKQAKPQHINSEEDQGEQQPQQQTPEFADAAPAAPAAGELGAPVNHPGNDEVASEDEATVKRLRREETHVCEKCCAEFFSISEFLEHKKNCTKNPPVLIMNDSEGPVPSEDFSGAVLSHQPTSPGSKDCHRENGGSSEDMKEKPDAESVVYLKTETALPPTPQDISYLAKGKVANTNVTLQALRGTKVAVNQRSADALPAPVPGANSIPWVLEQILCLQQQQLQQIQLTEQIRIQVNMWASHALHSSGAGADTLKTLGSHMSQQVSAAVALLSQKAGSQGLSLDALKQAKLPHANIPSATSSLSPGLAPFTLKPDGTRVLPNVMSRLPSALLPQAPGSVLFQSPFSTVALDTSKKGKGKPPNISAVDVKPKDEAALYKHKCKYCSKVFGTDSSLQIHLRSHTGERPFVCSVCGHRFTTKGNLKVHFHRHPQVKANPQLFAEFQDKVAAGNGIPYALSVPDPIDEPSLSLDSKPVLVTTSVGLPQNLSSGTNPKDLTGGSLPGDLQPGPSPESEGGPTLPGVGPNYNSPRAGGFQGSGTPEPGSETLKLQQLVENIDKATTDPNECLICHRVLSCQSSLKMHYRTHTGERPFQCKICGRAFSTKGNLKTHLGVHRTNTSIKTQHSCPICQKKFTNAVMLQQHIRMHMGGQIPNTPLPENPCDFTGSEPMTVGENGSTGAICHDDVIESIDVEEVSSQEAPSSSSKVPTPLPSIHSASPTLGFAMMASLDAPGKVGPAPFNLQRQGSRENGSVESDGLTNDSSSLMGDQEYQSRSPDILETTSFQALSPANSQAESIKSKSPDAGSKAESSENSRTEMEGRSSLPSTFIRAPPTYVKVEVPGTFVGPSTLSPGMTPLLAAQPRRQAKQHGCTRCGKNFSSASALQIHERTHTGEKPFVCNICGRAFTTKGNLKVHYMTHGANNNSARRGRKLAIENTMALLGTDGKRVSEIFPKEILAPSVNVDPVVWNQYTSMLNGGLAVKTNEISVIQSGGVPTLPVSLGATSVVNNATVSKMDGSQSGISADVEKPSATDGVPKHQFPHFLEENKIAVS
Technique: universal PBM
Molecule type: double-stranded DNA, one strand shown
Matrix: in vitro
Tested at: 600 nM
Setting: 8-mer, flanks averaged, mean of replicates
Direction: higher = stronger binding
Quantity: E-score
TCACGTAA: 0.168
CAATCGAG: -0.246
GATTACTA: 0.206
AAATACTG: 0.177
AATCTAGC: -0.00464
CAGGCACA: -0.135
CCTGACCC: -0.238
ATGAGCAT: 0.16
ACCCTCTG: -0.208
CGCACTAC: -0.178
ATCCGGAG: -0.0667
AACGAAGA: 0.121
ATGCCTCC: -0.12
CATAAAGC: 0.122
ATTATTGG: 0.277
ACGCGATC: -0.0825
AGACGTCG: -0.166
ATAAGGAG: 0.111
ACCCGGAC: -0.283
CCCCCAGG: -0.302
